# Results pooled from the literature.
# Each numbered part is a random draw from the data of one study; scales do not carry over between parts. Substitutions count along the parent as printed.

# Block 1 — technique: universal PBM; molecule type: double-stranded DNA, one strand shown; sample: in vitro; concentration: 600 nM; reading: higher = stronger binding
# Target: Sal-like protein 4, full length isoform A (SALL4, Homo sapiens, UniProt Q9UJQ4, residues 1-1053)
# Chain of UniProt Q9UJQ4 (whole entry, looked up): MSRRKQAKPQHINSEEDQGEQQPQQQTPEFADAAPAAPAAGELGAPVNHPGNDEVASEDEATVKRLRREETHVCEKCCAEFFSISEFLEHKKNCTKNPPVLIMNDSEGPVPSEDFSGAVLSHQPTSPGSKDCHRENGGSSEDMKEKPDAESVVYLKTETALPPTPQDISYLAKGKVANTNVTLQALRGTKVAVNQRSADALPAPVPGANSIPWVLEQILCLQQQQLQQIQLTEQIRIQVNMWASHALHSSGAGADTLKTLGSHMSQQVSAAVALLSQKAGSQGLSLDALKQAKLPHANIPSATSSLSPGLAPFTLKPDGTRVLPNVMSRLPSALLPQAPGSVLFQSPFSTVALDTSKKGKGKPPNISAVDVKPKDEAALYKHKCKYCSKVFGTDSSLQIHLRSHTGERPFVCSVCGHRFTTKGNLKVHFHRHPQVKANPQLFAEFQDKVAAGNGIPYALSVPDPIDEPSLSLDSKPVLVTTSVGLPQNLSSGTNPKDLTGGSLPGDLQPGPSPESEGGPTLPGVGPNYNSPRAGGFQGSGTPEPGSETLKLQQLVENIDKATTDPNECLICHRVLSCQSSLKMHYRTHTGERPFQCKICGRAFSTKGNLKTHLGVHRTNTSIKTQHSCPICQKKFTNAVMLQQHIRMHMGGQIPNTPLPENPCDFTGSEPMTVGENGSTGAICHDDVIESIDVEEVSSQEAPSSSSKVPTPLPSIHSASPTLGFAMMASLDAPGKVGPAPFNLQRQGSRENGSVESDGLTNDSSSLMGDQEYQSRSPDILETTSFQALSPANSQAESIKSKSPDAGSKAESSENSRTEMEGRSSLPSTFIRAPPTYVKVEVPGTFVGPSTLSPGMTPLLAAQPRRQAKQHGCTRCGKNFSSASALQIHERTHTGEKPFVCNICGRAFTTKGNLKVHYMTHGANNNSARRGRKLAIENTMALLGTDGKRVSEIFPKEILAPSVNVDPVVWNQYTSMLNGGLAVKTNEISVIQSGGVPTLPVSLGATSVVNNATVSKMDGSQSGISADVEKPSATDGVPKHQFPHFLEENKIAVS
# Setting: 8-mer, flanks averaged, mean of replicates
Oligonucleotide,E-score
ATCCCGCC,-0.3
AGGAACTC,-0.0395
ACTAGAGC,-0.124
GTGCCAAC,-0.172
ATCATTCC,0.0615
GTTTCAGA,0.0428
TCCGAGGA,-0.283
CTAGGTAC,-0.126
ACCTGTAG,-0.0555
CCCACTCC,-0.17
CCAATTGG,0.00467
CCTTGGGA,-0.244
CATCTGAA,0.131
ACGAACAA,0.238
CACTCGCA,-0.198
ACCTGGAC,-0.259
AATCATAG,0.327
AACTCGCA,0.0446
GCAAACCC,-0.272
TCCTCGAA,-0.0486
GCGTGACA,-0.0792
ATGCCAAC,0.112
AAATATCG,0.298
GCGGCTTA,-0.144
ATTACCCC,0.0284

# Block 2 — technique: RNA Bind-n-Seq; molecule type: RNA; sample: in vitro; concentration: 365 nM; relative to: no-protein control; reading: higher = stronger binding
# Target: RNA binding protein fox-1 homolog 2, RRM domain, GST-SBP tag (RBFOX2, Homo sapiens, UniProt O43251-10, residues 100-194)
# Setting: natural RNA segment, single round, ends assumed
# All sequences stand within: GGGAGUUCUACAGUCCGACGAUC … UGGAAUUCUCGGGUGCCAA
# Construct (chain): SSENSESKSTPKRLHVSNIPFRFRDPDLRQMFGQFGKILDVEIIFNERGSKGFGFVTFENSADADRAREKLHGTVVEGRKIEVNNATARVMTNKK
Oligonucleotide,RBNS enrichment (R)
AUGUUGUGUGGGACCUGGACCGCCCUCUGGAAGAAGAUUGUACCUUGGAGCUUCUCAAGUUUGAGGAUGAGGAAGCUCAGGCAGUGUAUUGGCACUCUAGUGCUCACAUA,1.6
AAAGAUCAGAAGCCUUCAGAUAGAGGGUGGUAUUCUGGUAAAGAAGAAAGAGAUAAGGGACGCUACCUUGCUUUUCUGGCACAGGAAGCACAUGAUAAAGCAUGCUCAGA,5.43
CCAUAGGUCAUCCUCAACAACCCAGAGGGUCCCUGCUCUGACAUCCUAGUCCCCGUGAGCCCUGCAGAGCCCAGUGGAGUACCCUCCCAAUAAAGGCUGUGGCGAGGCUG,0.187
GUGGCGCACGCCUGUGAUCCUAGCCCUUGGGAGGCUGAGGCAGGAGGAUUGCUCUGAGUUCCAGGUCAAGUCUGGGCUACAGAGUGAGACGCUGCCUCAAGAAAAGGGGA,0.376
UAAGAGGACUCUCCCUGACCAAGGACUAAAAAGCCUUUGGGGAUGCUGGUAUGAUGGACCAGGCAGGCCAGGCAGACGGGAGGAGGGCUGGGAACAAGAGCAGCCCACUC,0.421
CUGCUCUUGCUUUUCAGAGAGCCAUCAUGGUCAUGUCAUGCUGAGGUCACAUGUAUAAAAUUAGCUUUUGUGUAUGUAUACCGUUUAAAGGAUUCCCCCACCCCCACUCC,0.315
ACUGGGUGUUGGGCAUGGGGGCCCAUGGAGUCAAAAGGAAUGGAGAGAAGGGCUUUGUAAAUAGCAUUUAAUGUUAAGAACAUCUGCAUUCUCUUUGUAGCUGAGUGCGU,1.62
AAGUGUUUUGUUUGUUUGAAACAGUUUUACACUUUCUAAUGUACAGUACUUGAAGUUCGUACUAGAGAAUUCCUUUGUAGUUUUGAAGCUUUUAUCCAAACUACUUUGAA,0.439
GCCAAUAAUUUAUAGCCUUUCCCUUAAAUCAAGAUUGAGUUUAAAAUUAUAGUUUGUCUUUUGUCUUAACAGUUCUGAAUGCUGUCCUCAAAGUAUAUAAUGUUUCAUGU,0.483
UCAGACCUCAAGGGGUAAACUGGACCCACCGGGGAAAGAAAGGGAAGAGGGGAGACCUCUUCUACGACCCCUCCCACUCGGGCCCGAGUAGGGCCUGGGACCCCGAAUGU,0.31
CCUGGACUCUGCCUUAGCUCCCACCUCUCAGCCUUGUUAUUGGGUUUCAUGCCCCUGGACCAGCCUUAUCUCAGACCUGCUUACCUGCAUGAUGCCUUUUUGGGGGCUGG,5.74
UUCUUGUUAAAAUGACUGAUUCUCGUGCAUGUGAAAGGCUCUGGGGAAUGAAUACCUGUUUGGUCCAAACUUACUGUAUCAUAAUGCUGUAUAUGUUGAAAACGUAAUAC,13.7

# Block 3 — technique: competition protein-binding microarray; molecule type: double-stranded DNA, one strand shown; sample: in vitro; concentration: 2 µM; with: Pho4 competitor, 0.05 µM; reading: higher = stronger binding; all sequences stand within: … GTCTTGATTCGCTTGACGCTGCTG
# Target: Centromere-binding protein 1, full length, His-tagged (CBF1, Saccharomyces cerevisiae, UniProt P17106, residues 1-351)
# Chain of UniProt P17106 (whole entry, looked up): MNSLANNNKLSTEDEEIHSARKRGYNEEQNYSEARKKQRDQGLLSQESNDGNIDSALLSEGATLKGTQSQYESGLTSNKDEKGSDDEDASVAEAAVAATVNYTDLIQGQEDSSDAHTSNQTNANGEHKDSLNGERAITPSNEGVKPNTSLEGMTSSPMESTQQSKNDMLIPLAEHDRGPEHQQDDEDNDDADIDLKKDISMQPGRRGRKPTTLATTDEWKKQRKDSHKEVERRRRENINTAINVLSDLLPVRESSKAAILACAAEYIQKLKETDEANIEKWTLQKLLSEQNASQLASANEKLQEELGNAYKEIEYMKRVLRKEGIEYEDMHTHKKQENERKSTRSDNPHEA
# Setting: whole 60-bp probe, lowest competitor level
Oligonucleotide,fluorescence intensity [a.u.]
AAATTACTAAGTTGTCACCCCACTTACCCCGTATGA,85.2
CTGGCGTACGACATGAACGTGGTGAGCTCTCTTGTG,86.5
TTCCATCTTCTAAAGACCGTGTCTGCGCTTCCAGAT,58.1
ACTACAGACAAAAAACCCGTGGCCGACCGAACCGAA,73.6
TGCGCAACAACTTGAATTGTGGGTGTATGTCTAGAA,69
CCGGAAGTGAAAGAAGACGTGATGGGCTATGCGCTA,73.6
CTTCTGTAAATTTTTCACGTGTGATGACGCGCCCCG,585
TGCGCAACAACTTTTCACGTGCGATTATGTCTAGAA,917
CCAGTAACTTCGTTGACCGTGATGGTCCGTTCATTT,70.7
GGTACAGCGCCCTGTCATGTTCCCCGATTGCCTGTT,69.1
ACTGGTTACGATGATAACGAGCACTATGTTTCCCCC,89
CTAACGAAGGTTTGTCGTGTGGGTGACAAGCCAAGT,65.4
TCTTCTTTTTGCCTCCACGGGCCGCAGATCTGTGTT,66
CTAACGAAGGTTTGTCTCGTGGGTGACAAGCCAAGT,95.6
CTTCTGTAAATTTGTCACGGGACTTGACGCGCCCCG,1060
TTTACAATTCCAAACCATGTGATGCTTGTCAGAGGG,909
CTTTCCCGATCTTGGGGGGTGGGTGTAGCACATTTG,89.4
AAGAAAGAGTTGGTCGTCGTGCCGATAACTTGAGAG,65
AAAGCGGTAATTTGCATCGTGGGTGCAGATATCTAT,63.7
AACCTAAAACGACTTTGTGTGACGCCGAAGAGAAAG,80.1
CGGGGTTAAGTTTTTCACGTGCGATGCTTGCAGCAG,720
GTCATTACGGGGGTTCACGTGCGATGGGAAGCTTTT,987
CATACCCAACCTTGTCACCTGACTTAAGATATTTGT,2080
GTTATTTAAAGCTTCCACGTGCAAAATTTTAGGCAA,1480
TGCGCAACAACTTGAAAGGTGGGTGTATGTCTAGAA,59.5

# Block 4 — target: CCNF, cyclin fold, Cln2 fusion (human); technique: yeast growth competition, sequencing; sample: yeast; setting: strong parent motif; relative to: not given; reading: higher = stronger binding
# Parent: GMNC docking peptide (human); KNAKRNLSSEFAN
Change,normalised enrichment score
A3W,0.767
S9A,0.883
N6M,0.212
N2Y,0.673
A3Y,0.328
S9Q,0.633
A3T,0.838
L7S,0.0348
S9V,1.13
F11C,0.469
N2A,0.56
N6T,0.432
L7D,0.271
E10Y,0.838
L7P,0.599
K4S,-0.0809
K4N,0.592
K4P,0.165
R5C,0.0115
S8Y,1.37
A3D,0.161
N6V,0.244
R5E,0.473
N2P,0.218
S9H,1.08

# Block 5 — target: OGT, full length, His-tagged (human); technique: phage display, sequencing; sample: in vitro; concentration: 1 µg OGT; relative to: input library; reading: higher = stronger binding; parent: peptide; VAYPNSYMPKYQIST
# Setting: single substitutions, 15-mer displayed peptide, unchanged parent 6.14
Change,fold enrichment
I13K,0.625 fold
N5K,3.18 fold
Q12H,0.747 fold
K10H,3.49 fold
I13F,0.725 fold
N5H,5.69 fold
Y11F,0.896 fold
S14N,6.79 fold
S6Y,3.84 fold
Y11L,1.48 fold
K10I,2.32 fold
P4S,6.86 fold
K10Y,2.73 fold
Y7G,0.479 fold
Q12V,0.589 fold
V1F,8.79 fold
P4K,5.69 fold
Y3I,5.45 fold
Y3L,4.81 fold
K10V,3.47 fold
N5A,5.4 fold

# A few entries again (block 5):
Change,fold enrichment
N5K,3.18 fold
Q12H,0.747 fold
K10H,3.49 fold
I13F,0.725 fold
N5H,5.69 fold
Y11F,0.896 fold
S14N,6.79 fold
S6Y,3.84 fold
Y11L,1.48 fold
K10I,2.32 fold
P4S,6.86 fold
K10Y,2.73 fold
Y7G,0.479 fold
